# Published values pooled from the literature.
# Numbers after ± are the reported error.
# OPRM1: Mu-type opioid receptor (OPRM1, Homo sapiens, UniProt P35372)
Structure (SMILES),target,assay,system,conditions,how to read,endpoint,value
O=C(Cc1ccc(Cl)c(Cl)c1)N1CCN[C@@H]2COC[C@H](N3CCCC3)[C@H]21,OPRM1,radioligand binding,,"up to 20 µM, with: [3H]DAMGO",,inhibition,≤ 50%
CN(C)[C@H](CNC(=O)/C=C/c1cccc2ccccc12)Cc1ccc(O)cc1,"Mu-type opioid receptor, with Gz (OPRM1, Homo sapiens, UniProt P35372)","receptor activation, agonist",,,,Emax,80 ± 3%
C/C(=N\OCCCN1CCCCC1)c1ccc(C(F)(F)F)cc1,OPRM1,"antagonist, cAMP",,10 µM,,inhibition,6.56%
COc1cc2c(cc1-n1ccnc1)C[C@H]1[C@H]3CCCC[C@@]23CCN1C,OPRM1,"ligand displacement, radioligand",,10 µM,,inhibition,77.9%
C[C@@H](Cc1ccsc1)NC(=O)NC[C@H](Cc1ccc(O)cc1)N(C)C,OPRM1,"β-arrestin recruitment, agonist",HEK-293T,,,Emax,< 5%
Cc1sc2c(c1C)C(c1ccc(Cl)cc1)=NC(CC(=O)OC(C)(C)C)c1nnc(C)n1-2 (stereo not shown),OPRM1,"ligand displacement, radioligand",,1 µM,,inhibition,-4%
CCOC(=O)[C@](CC)(CCCSCCOCCOCCNC(=O)c1ccc(-c2c3ccc(=N)c(S(=O)(=O)O)c-3oc3c(S(=O)(=O)O)c(N)ccc23)c(C(=O)O)c1)NC(=O)c1ccc(C2CC2)c(Cc2ccc(F)cc2)n1,OPRM1,"ligand displacement, radioligand",,10 µM,,inhibition,0%
COc1cc2c(cc1NC(=O)c1cncn1C)C[C@H]1[C@H]3CCCC[C@@]23CCN1C,OPRM1,"ligand displacement, radioligand",,1 µM,,inhibition,9.6%
CN[C@@H]1[C@H](O)[C@H](NC)[C@H]2O[C@]3(O)[C@H](O[C@@H]2[C@H]1O)O[C@H](C)C[C@H]3NC(=O)Cc1cc(Cl)ccn1,OPRM1,"ligand displacement, radioligand",,10 µM,,inhibition,-5%
C[C@H](NCc1ccc(-c2ccc(C(F)(F)F)cc2)cc1)C(N)=O,OPRM1,"radioligand binding, SafetyScreen panel",,"1 µM, species human, with: 0.60 nM [3H]Diprenorphine",,inhibition,14%
CCCCCCCCCCCCCCCCCC(=O)NC[C@H]1CC[C@H](C(=O)N[C@@H](CCC(=O)NCCCOCCOCCOCCCNC(=O)COCC(=O)N[C@@H](Cc2ccc(O)cc2)C(=O)NC(C)(Cc2ccccc2)C(=O)N[C@@H](CC(C)C)C(=O)N[C@@H](CCCC)C(=O)N[C@@H](CCCNC(=N)N)C(=O)N2CCC[C@H]2C(=O)N[C@@H](CCCNC(=N)NC)C(=O)N[C@@H](CC(N)=O)C(N)=O)C(=O)O)CC1 (stereo partly shown),OPRM1,"antagonist, DiscoverX GPCR panel",,1 µM,,inhibition,78%
Cc1cc(-c2ccc3ccccc3c2)nnc1NCCN1CCN(C)CC1,OPRM1,antagonist,,10000 nM,relative to: control,activity,0%
CCN(CC)CCOc1ccc(-c2nnn(Cc3ccc(OC)cc3)c2N)cc1,OPRM1,radioligand binding,HEK293,"10 µM, safety profiling",,inhibition,9.88%
N[C@H](C(=O)N1CCCC1)C1CCN(c2nccc3c(-c4ncc(Cl)cc4Cl)cccc23)CC1,OPRM1,"functional response, antagonist",,10 µM,,inhibition,11%
COc1ccc2c(c1)[C@]13CCCC[C@@H]1[C@H](C2)N(C)CC3,OPRM1,"ligand displacement, radioligand",,10 µM,,inhibition,75.3%
Cc1cc(Nc2nc(C[C@@]3(C(=O)O)CCN(Cc4cccc(Cl)c4F)[C@H](C)C3)cc(C)c2F)[nH]n1,OPRM1,inhibitor,,10 µM,,inhibition,13.7%

# Excerpt of the above:
Structure (SMILES),target,assay,system,conditions,how to read,endpoint,value
Cc1sc2c(c1C)C(c1ccc(Cl)cc1)=NC(CC(=O)OC(C)(C)C)c1nnc(C)n1-2 (stereo not shown),OPRM1,"ligand displacement, radioligand",,1 µM,,inhibition,-4%
CCOC(=O)[C@](CC)(CCCSCCOCCOCCNC(=O)c1ccc(-c2c3ccc(=N)c(S(=O)(=O)O)c-3oc3c(S(=O)(=O)O)c(N)ccc23)c(C(=O)O)c1)NC(=O)c1ccc(C2CC2)c(Cc2ccc(F)cc2)n1,OPRM1,"ligand displacement, radioligand",,10 µM,,inhibition,0%
